# Assay results collected from several papers.
# Parts stem from different laboratories: compare values within a part only.
# UniProt Q9H0K1, sequence (whole entry, looked up): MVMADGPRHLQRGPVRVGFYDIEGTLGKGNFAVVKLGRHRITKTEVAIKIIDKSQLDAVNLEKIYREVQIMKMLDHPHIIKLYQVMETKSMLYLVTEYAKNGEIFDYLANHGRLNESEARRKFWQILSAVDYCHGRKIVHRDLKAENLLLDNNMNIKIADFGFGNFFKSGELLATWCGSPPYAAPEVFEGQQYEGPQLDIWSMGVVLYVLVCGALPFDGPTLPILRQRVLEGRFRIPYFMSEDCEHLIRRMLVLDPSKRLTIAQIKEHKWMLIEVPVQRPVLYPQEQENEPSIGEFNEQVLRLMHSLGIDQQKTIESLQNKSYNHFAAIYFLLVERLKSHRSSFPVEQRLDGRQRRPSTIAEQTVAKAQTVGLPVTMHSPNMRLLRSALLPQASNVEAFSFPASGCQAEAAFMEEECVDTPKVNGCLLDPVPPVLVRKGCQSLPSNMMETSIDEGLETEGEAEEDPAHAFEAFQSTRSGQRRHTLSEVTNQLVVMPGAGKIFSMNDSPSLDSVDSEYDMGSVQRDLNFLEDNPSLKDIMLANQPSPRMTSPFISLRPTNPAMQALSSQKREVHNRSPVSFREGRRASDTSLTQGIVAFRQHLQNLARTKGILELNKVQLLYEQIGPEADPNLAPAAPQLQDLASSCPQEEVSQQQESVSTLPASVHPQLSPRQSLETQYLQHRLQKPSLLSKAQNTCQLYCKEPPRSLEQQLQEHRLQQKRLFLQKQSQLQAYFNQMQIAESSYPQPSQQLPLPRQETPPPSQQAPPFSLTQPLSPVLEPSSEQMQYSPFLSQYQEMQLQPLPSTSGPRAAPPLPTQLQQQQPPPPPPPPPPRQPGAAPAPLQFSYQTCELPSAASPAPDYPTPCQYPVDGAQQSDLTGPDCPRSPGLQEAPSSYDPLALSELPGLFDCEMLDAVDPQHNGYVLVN

# Block 1
# Target: Tyrosine-protein kinase Fes/Fps (FES, Homo sapiens, UniProt P07332)
# UniProt P07332, sequence (whole entry, looked up): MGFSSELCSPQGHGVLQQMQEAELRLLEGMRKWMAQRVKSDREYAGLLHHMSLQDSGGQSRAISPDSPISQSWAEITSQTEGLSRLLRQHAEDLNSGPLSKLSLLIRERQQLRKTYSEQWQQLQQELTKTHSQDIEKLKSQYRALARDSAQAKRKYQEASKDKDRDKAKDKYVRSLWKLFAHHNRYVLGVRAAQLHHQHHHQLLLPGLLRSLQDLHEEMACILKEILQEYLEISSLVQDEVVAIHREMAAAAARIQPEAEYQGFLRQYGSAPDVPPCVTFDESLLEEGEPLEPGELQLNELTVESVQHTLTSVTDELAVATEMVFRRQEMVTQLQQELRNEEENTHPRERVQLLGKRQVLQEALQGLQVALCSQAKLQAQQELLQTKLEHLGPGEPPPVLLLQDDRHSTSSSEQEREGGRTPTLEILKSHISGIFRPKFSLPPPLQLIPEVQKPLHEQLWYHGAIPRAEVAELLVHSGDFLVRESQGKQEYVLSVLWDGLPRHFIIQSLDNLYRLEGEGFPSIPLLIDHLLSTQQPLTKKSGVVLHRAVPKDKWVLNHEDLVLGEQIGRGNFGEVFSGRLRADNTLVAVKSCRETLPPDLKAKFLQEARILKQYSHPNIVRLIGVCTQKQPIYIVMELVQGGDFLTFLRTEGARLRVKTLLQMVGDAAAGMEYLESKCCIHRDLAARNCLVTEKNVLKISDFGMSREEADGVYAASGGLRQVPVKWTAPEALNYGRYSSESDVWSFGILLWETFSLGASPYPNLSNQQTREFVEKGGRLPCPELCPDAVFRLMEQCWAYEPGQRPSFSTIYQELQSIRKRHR
# Read-out: enzyme activity
# Mode: inhibitor
# Concentration: 0.5 µM
# Relative to: control
SMILES,remaining activity
Oc1ccc(-c2nc(-c3ccncc3)c(-c3ccc(F)cc3)[nH]2)cc1,101%
COc1ccc(CNC(=O)Nc2ncc([N+](=O)[O-])s2)cc1,97.7%
Cc1cccc(-c2[nH]c(C(C)(C)C)nc2-c2ccc3c(c2)OCO3)n1,108%
Cn1sc(=O)n(Cc2ccccc2)c1=O,101%
Cn1c2ccccc2c2c3c(c4c5ccccc5n(CCC#N)c4c21)CNC3=O,78.4%
Cc1nc(-c2ccccc2)c(-c2ccncc2)o1,101%
Nc1ccc2ncnc(NCCc3ccc(Oc4ccccc4)cc3)c2c1,99.6%
N#CC(C#N)=C(N)/C(C#N)=C/c1ccc(O)cc1,101%
COc1cc2nccc(Oc3ccc(NC(=S)NC(=O)c4ccccc4C)cc3)c2cc1OC,96.7%
Nc1[nH]nc2nc3ccccc3nc12,96.8%
O=c1c2ccccc2[nH]c(=S)n1CCN1CCC(=C(c2ccc(F)cc2)c2ccc(F)cc2)CC1,94.9%
OCC(O)CCON=C1C(c2c(O)[nH]c3ccccc23)=Nc2ccccc21 (centres unmarked),81.7%
O=C(Nc1cccc(Nc2cc(Nc3cccc(C(F)(F)F)c3)ncn2)c1)C1CC1,101%

# Block 2
# Host: mouse
# Medium: microsomes or S9
# Concentration: 2 µM
# Time: 0.5 h
SMILES,remaining compound
CN(C)c1cncc(-c2cccc(-n3cccn3)c2)n1,1.6%
O=C(O)CCc1ccc(N2Cc3ccc(NC(=O)c4ccccc4)cc3C2=O)cc1,85.5%
CCC1=NOC(CNC(=O)c2cc(C)c(CC)n(C)c2=O)C1 (centres unmarked),57.6%
Cc1ncc(S(=O)(=O)NCCc2nccnc2C)s1,> 100%

# Block 3
# Cell line: mouse MPNST tumor cells
# Technique: high-content immunofluorescence imaging
# Measured: nuclear SOX9
# Concentration: 10 µM
# Time: 12 h
# Setting: mean of 2 replicates
# Relative to: DMSO control
# Direction: higher = more nuclear SOX9
SMILES,nuclear SOX9 intensity
Cn1ncc2c(N3CCOCC3)nc(-c3cccc(O)c3)nc21,88.2 % of DMSO
CCCCOc1cc(C(=O)NCCN(CC)CC)c2ccccc2n1,166 % of DMSO
COc1cc(N2CCN(C)CC2)ccc1Nc1nccc(-c2cn(C)c3cnccc23)n1,135 % of DMSO
O=C1c2ccccc2C(Cc2ccnc(F)c2)(Cc2ccnc(F)c2)c2ccccc21,102 % of DMSO

# Block 4
# SMILES: CC(C)n1cnc(-c2ccc(F)cc2)c1-c1ncc(C(=O)Nc2ccc(N3CCN(C)CC3)cc2)[nH]1
# Technique: phase 2a clinical trial
# Host: patients with idiopathic pulmonary fibrosis
setting,patients with liver injury [%]
"30 mg once daily, with: standard of care",0
"60 mg once daily, with: standard of care",9.1
"30 mg once daily, without standard of care",0

# Mixed results
# Read-out: cell-free assay
# Technique: competition with immobilised ligand
# Concentration: 1 µM
SMILES,target,remaining binding
CN([C@@H]1CCc2c(CC(=O)O)c3ccccc3n2C1)S(=O)(=O)c1ccc(F)cc1,"Serine/threonine-protein kinase SIK2 (SIK2, Homo sapiens, UniProt Q9H0K1)",99%
CCCCN(CCCC)C(=O)CN1C[C@H](c2cc(OC)c3c(c2)OCO3)[C@@H](C(=O)O)[C@@H]1CC(C)(C)CCC,"Receptor-type tyrosine-protein kinase FLT3 (FLT3, Homo sapiens, UniProt P36888, D835V/ITD)",46.4%

# Some of these lines once more (block 1):
SMILES,remaining activity
OCC(O)CCON=C1C(c2c(O)[nH]c3ccccc23)=Nc2ccccc21 (centres unmarked),81.7%
